# Measurements from different studies.
# Each numbered part is a random draw from the data of one study; scales do not carry over between parts. Changes are numbered by the printed parent chain.

# Series 1
# Target: Histone acetyltransferase KAT6A, winged helix 1, GST fusion (KAT6A, Homo sapiens, UniProt Q92794, residues 1-85)
# Method: protein binding microarray
# Form: double-stranded DNA, one strand shown
# Matrix: in vitro
# Tested at: not given
# Setting: 8-mer, flanks averaged, mean of 2 arrays, mostly near background
# Baseline: not given
# Reading: higher = stronger binding
# Construct (chain): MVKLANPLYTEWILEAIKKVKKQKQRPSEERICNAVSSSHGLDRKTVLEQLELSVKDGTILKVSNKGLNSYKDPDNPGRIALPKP
Oligonucleotide,E-score
ATAGAAAA,-0.137
ACTAGCCC,0.0356
ACGTATCA,-0.0128
AAAGAGTT,-0.25
ACACCGGG,0.321
ACAGTTTG,-0.0489
GAAAATTC,0.0891
CACTAGCA,-0.107
AGTTTCTG,-0.104
GGGGTCTA,0.0558
ATGACTCC,0.00383
ACCCTCGG,0.0244
ACGATGTC,-0.0606
CGCTAGAG,0.174
TGGGGCAA,-0.246
CATTCGTC,-0.143
CGTCGCAA,0.31
GGAAAGCA,-0.0545
CAAGAGTG,-0.206
AATCGCAA,0.024
AGGTGGAC,-0.232

# Series 2
# Target: ABI1, truncated, D143A, DHFR fusion (Arabidopsis thaliana)
# Method: DHFR PCA, deep sequencing
# Matrix: yeast
# Setting: methotrexate growth selection, single substitutions
# With: (+)-ABA 1.4 µM
# Baseline: wild-type fitted maximum
# Reading: higher = stronger binding
# Parent: PYL1, truncated, DHFR fusion (Arabidopsis thaliana); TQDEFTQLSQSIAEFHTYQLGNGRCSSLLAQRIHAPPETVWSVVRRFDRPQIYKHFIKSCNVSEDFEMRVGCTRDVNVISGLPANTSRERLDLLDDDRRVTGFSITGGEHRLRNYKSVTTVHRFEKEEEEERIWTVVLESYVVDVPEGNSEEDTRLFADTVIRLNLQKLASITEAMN
Change,relative binding score [%]
M68W,1.72
V62T,28.7
G23T,18.4
Q10K,71.4
R90I,0.099
R99P,3.44
G108L,-7.94
I57S,-3.05
N77Q,74.4
V100G,-0.932
E14C,6.28
D144G,2.8
V118S,5.72
N22G,50.2
T73V,67.9
V143K,-9.45
L94Y,23.5
T101V,49.3
L93S,9.84

# Series 3
# Target: RNA binding protein fox-1 homolog 2, RRM domain, GST-SBP tag (RBFOX2, Homo sapiens, UniProt O43251-10, residues 100-194)
# Method: RNA Bind-n-Seq
# Form: RNA
# Matrix: in vitro
# Tested at: 365 nM
# Setting: natural RNA segment, single round, ends assumed
# Baseline: no-protein control
# Reading: higher = stronger binding
# Constant ends, left off below: GGGAGUUCUACAGUCCGACGAUC … UGGAAUUCUCGGGUGCCAA
# Residues (chain): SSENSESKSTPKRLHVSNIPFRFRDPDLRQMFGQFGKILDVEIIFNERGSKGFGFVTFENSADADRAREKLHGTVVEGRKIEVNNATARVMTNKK
Oligonucleotide,RBNS enrichment (R)
GGAAGUAGCCCUGCACCUGCCAGUGAGCUCGCCAUUCACUGAUUGGAAGAGUGACCUGGCAUCUUGGAAAUCAUUGUGUGUCUUCAGGAGAAUGUGCAGUGUCUUGUAAC,0.314
UUGAAAGCUGGAGGGUGGGGCAGAGUGGGUUGGUUCUGGGUGGUCCUGACUCCCAGGAUCCUCCUACCCUCAUCUCACAGAUAACUUCAUGCAUCAAACUGGAACCCCUA,0.248
CUAGAACCUUGUUGAUCAUGCUCAUAUUCUUCUUGAGGUUUGUUUUUGUUGUUGCGUAGUCUUUGUUUUAUACUUCUACAAUACCCGUAUAGCCUUCCACAUAGAUCUGC,0.6
CUACUGGCCAGGUCACCAAGCAGUGGCCUUUAUCUGACAUGCUCACUUUAUUAUCCAUGUUUUAAAAAUACAUAGUUGUUGUACCUGCUAUGUUUUACCGUUGAUGAAAG,0.25
AUUAAAGACGAAAAGCCACCUCGGUUUGCUUAACUUUAGAUAGAUAGGACCUGGCGCACACAAGAGCAGGAGAACAGGGCUGGAGCAGCUGUUGACGGGACCCCUGCUGU,0.583
UGCCAAAAUUCAUUUUUCUAACUCUGUGUGUUAGGAAAUAAUGAAAAAUAAAAUAAUUUAAAAUAAACAUUGUGCCUCUCUGUCUUAUUGGUGUUUCUUUAGAACUGAAU,0.861
GCCUAGGAGUGUGAGACUGAUGUUGCUGGACAGAAAGUGAUCCUUAGCCCAGUGUGUCAGCGUCCAUUGUUACUCAUCACUGCAUUGUUGGGCAAUUAGUUUGUAAUUUG,0.436
UUGCCCAAAAACACUGAAACUGUGCUCUCUGCCACCUGCCCCCCACGCUUUUUCUUUUUCUCUCUUUGGCAUUGUUCAUUUUGAGGUAGACCAUAGACUCUAGCCCAGGC,0.948

# Series 4
# Target: Fragile X messenger ribonucleoprotein 1, C-terminal low-complexity region (Fmr1, Mus musculus, UniProt P35922)
# Method: RNA Bind-n-Seq
# Form: RNA
# Matrix: in vitro
# Tested at: 200 nM
# Setting: whole 134-nt RNA, ends assumed
# With: 150 mM KCl
# Baseline: input library
# Reading: higher = stronger binding
# Constant ends, left off below: GGGAGUUCUACAGUCCGACGAUC … UGGAAUUCUCGGGUGUCAAGG
Oligonucleotide,log2 enrichment
UCAAGUCCUGUGCUACACAUCGUAUGUACCGAAUCGGUUUUUGGUUUUUGGAGGAAAGUAUUAUGUUACGCCGUUCGGAUCUGCACUUCC,-0.474
CAAGUCCUGUGCUACACAUCGUAUGUACCGAAUCGGGAAAAAGGGAGGGAAAGGGAAAGUAUUAUGUUACGCCGUUCGGAUCUGCACUUC,0.641
UCCUCAAGUCCUGUGCUACACAUCGUAUGUACCGAAUCGGGGAGGAGGGAGGAAAGUAUUAUGUUACGCCGUUCGGAUCUGCACUUCCAG,0.503
GCAGGAAGUAAAAACAAAUGGAAAUGCUUCGGAUAGUGGCAGCGGUGGGGGUUGCUAAGGAAAGGGUGGGAUGGGAGUGGGUAAAGAGUU,0.488
UCCUGUGCUACACAUCGUAUGUACCGAAUCGGCCCCCCGGGCCCCCCGGGCCCCCCGGGAAAGUAUUAUGUUACGCCGUUCGGAUCUGCA,-0.737
AGUCCUGUGCUACACAUCGUAUGUACCGAAUCGGAAAAAAAGGAAAAAAAGGAAAGGAAAGUAUUAUGUUACGCCGUUCGGAUCUGCACU,-1.09
UGGCCCUGGUGGCAUGCGGGGAGGAAGAGGUGGCCUCAUGGAUCGUGGUAGUCCCGGUGGAAUGUUCAGAGGUGGCCGUGGUGGAGACAG,0.179
ACCAUGCAGGUGGGCAUCUUUGGGAAGUGGGGCAAGGGGGGGAUAGGGAGGGGGGUAACGCUUUGGGAACAGGUGGUCCCAGGUCGUUUC,0.357
UCCUGUGCUACACAUCGUAUGUACCGAAUCAAACCCAAACCCCCCCAAACCCCCCCAAAAAAGUAUUAUGUUACGCCGUUCGGAUCUGCA,0.11

# Repeated from above (series 3):
Oligonucleotide,RBNS enrichment (R)
GGAAGUAGCCCUGCACCUGCCAGUGAGCUCGCCAUUCACUGAUUGGAAGAGUGACCUGGCAUCUUGGAAAUCAUUGUGUGUCUUCAGGAGAAUGUGCAGUGUCUUGUAAC,0.314
CUAGAACCUUGUUGAUCAUGCUCAUAUUCUUCUUGAGGUUUGUUUUUGUUGUUGCGUAGUCUUUGUUUUAUACUUCUACAAUACCCGUAUAGCCUUCCACAUAGAUCUGC,0.6
UUGAAAGCUGGAGGGUGGGGCAGAGUGGGUUGGUUCUGGGUGGUCCUGACUCCCAGGAUCCUCCUACCCUCAUCUCACAGAUAACUUCAUGCAUCAAACUGGAACCCCUA,0.248
CUACUGGCCAGGUCACCAAGCAGUGGCCUUUAUCUGACAUGCUCACUUUAUUAUCCAUGUUUUAAAAAUACAUAGUUGUUGUACCUGCUAUGUUUUACCGUUGAUGAAAG,0.25
UUGCCCAAAAACACUGAAACUGUGCUCUCUGCCACCUGCCCCCCACGCUUUUUCUUUUUCUCUCUUUGGCAUUGUUCAUUUUGAGGUAGACCAUAGACUCUAGCCCAGGC,0.948
UGCCAAAAUUCAUUUUUCUAACUCUGUGUGUUAGGAAAUAAUGAAAAAUAAAAUAAUUUAAAAUAAACAUUGUGCCUCUCUGUCUUAUUGGUGUUUCUUUAGAACUGAAU,0.861
